Experimental data from different studies.
Each numbered part is a random draw from the data of one study; scales do not carry over between parts. Changes are numbered by the printed parent chain.

Block 1 — technique: DHFR PCA, deep sequencing; matrix: yeast; together with: (+)-ABA 0.39 µM; baseline: wild-type fitted maximum; reading: higher = stronger binding
Target: ABI1, truncated, D143A, DHFR fusion (Arabidopsis thaliana)
Notes: methotrexate growth selection, single substitutions
Starting sequence: PYL1, truncated, DHFR fusion (Arabidopsis thaliana); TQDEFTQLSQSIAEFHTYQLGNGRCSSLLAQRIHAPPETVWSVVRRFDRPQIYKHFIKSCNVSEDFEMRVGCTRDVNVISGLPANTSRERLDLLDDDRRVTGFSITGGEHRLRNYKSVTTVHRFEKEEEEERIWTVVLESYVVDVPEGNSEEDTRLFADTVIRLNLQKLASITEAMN; partner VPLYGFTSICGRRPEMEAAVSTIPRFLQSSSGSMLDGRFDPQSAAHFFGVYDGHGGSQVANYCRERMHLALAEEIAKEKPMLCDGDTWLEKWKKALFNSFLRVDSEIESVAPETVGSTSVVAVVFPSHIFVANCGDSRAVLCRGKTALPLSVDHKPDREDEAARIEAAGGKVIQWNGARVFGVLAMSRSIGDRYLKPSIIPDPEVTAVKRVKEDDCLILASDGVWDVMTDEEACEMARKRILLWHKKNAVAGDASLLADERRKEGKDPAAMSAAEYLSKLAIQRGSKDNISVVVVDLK
| Substitution | relative binding score |
| --- | --- |
| I105K | 2.17% |
| E14P | -0.801% |
| K58R | 43.6% |
| S171Q | 60.5% |
| V118F | -7.96% |
| G21K | 44.5% |
| Y141W | -30% |
| A30D | 7.15% |
| T1G | 40.3% |
| N114G | 18% |
| A35T | 5.04% |
| E125G | 48.8% |
| T120P | 0.579% |
| A158R | -5.03% |
| T106L | 67.8% |
| A84E | 14.3% |

Block 2 — technique: aptamer microarray, sandwich; form: DNA with 2'F-ANA; matrix: in vitro; concentration: 200 nM; together with: Cy3 exosite-II aptamer, 400 nM; reading: higher = stronger binding; strand: GGTTGGTGTGGTTGG
Target: Prothrombin, mature alpha-thrombin (F2, Homo sapiens, UniProt P00734)
Notes: whole 15-mer aptamer, many near background
| Modification | mean fluorescence intensity [a.u.] |
| --- | --- |
| 2'F-ANA at 1 3 4 5 6 7 8 10 12 13 15 | 54.6 |
| 2'F-ANA at 1 2 3 4 5 6 9 11 13 15 | 56.1 |
| 2'F-ANA at 2 3 5 6 7 8 10 11 12 15 | 59.9 |
| 2'F-ANA at 1 2 3 4 6 7 8 10 13 14 15 | 52.4 |
| 2'F-ANA at 1 2 3 6 10 11 13 | 120 |
| 2'F-ANA at 1 3 5 7 10 13 15 | 45.7 |
| 2'F-ANA at 1 3 6 8 10 12 13 14 15 | 65.3 |
| 2'F-ANA at 1 3 4 7 9 11 13 15 | 128 |
| 2'F-ANA at 2 3 4 5 7 8 9 10 12 13 15 | 64.6 |
| 2'F-ANA at 1 8 9 11 12 13 15 | 279 |
| 2'F-ANA at 2 3 6 7 8 10 11 13 | 338 |
| 2'F-ANA at 1 6 7 8 9 10 11 12 15 | 69.4 |
| 2'F-ANA at 4 8 9 14 15 | 88.9 |
| 2'F-ANA at 2 3 5 7 12 13 14 | 82.8 |
| 2'F-ANA at 4 5 10 13 | 42.8 |
| 2'F-ANA at 1 3 5 10 11 13 14 15 | 48.8 |
| 2'F-ANA at 3 7 9 14 15 | 553 |
| 2'F-ANA at 4 5 6 8 13 15 | 55 |
| 2'F-ANA at 1 2 4 6 7 13 15 | 76.5 |
| 2'F-ANA at 1 2 4 5 8 10 15 | 49.3 |
| 2'F-ANA at 2 4 7 9 10 14 | 67.6 |
| 2'F-ANA at 1 2 3 8 9 15 | 263 |
| 2'F-ANA at 6 10 11 12 15 | 180 |
| 2'F-ANA at 3 5 6 10 11 13 | 53.1 |
| 2'F-ANA at 1 3 5 6 7 8 11 12 15 | 105 |

Block 3 — target: CEBPA, bZIP domain (human); technique: DHFR protein complementation; matrix: yeast; baseline: wild-type JUN-FOS pair; reading: higher = stronger binding
Notes: single substitutions, most at no-binding floor
Starting sequence: JUN, bZIP domain (human); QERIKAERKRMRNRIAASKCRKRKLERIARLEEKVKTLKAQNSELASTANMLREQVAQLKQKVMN; partner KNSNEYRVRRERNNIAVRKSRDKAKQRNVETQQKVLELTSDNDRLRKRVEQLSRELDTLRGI
| Substitution | binding fitness [natural log] |
| --- | --- |
| A40W | -1.49 |
| E44H | -1.5 |
| A29R | -1.48 |
| K39Q | -1.4 |
| E54P | -1.51 |
| E33R | -1.43 |
| K34D | -1.52 |
| A40D | -0.959 |
| E44I | -1.49 |
| R53V | -1.43 |
| K39H | -1.48 |
| L45W | -1.48 |
| N42M | -1.53 |
| E32R | -1.38 |
| V35G | -1.5 |
| V35T | -1.41 |

Block 4 — technique: protein binding microarray; form: double-stranded DNA, one strand shown; matrix: in vitro; concentration: not given; baseline: not given; reading: higher = stronger binding
Target: Histone acetyltransferase KAT6A, winged helix 2, GST fusion (KAT6A, Homo sapiens, UniProt Q92794, residues 85-181)
Notes: 8-mer, flanks averaged, mean of 2 arrays, mostly near background
Construct (chain): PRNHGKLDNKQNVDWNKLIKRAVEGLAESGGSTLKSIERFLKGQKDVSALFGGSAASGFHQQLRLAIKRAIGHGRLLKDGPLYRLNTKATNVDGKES
| Strand | E-score |
| --- | --- |
| GTGCGTTA | -0.00531 |
| ATAATGAA | 0.165 |
| CCGCTAAC | 0.0774 |
| ACCCGAGC | 0.222 |
| GGCGTGAA | 0.117 |
| CACAGCGC | 0.139 |
| ATGTCTGG | -0.0533 |
| CCTCTCCG | 0.0508 |
| AGAGTATC | -0.113 |
| CAGTCGCG | -0.0794 |
| GAGTTGAC | -0.0673 |
| AGCACCCC | -0.0818 |
| CTCCGCCA | 0.126 |
| CCGTACCC | 0.0309 |
| GTACTGTA | -0.18 |
| CCAGAGAG | -0.0976 |
| AAGCTGGA | -0.0608 |
| AGGTCACC | 0.101 |

Block 5 — technique: protein-binding microarray; form: double-stranded DNA, one strand shown; matrix: in vitro; concentration: 2540 nM top; notes: 60-bp whole probe; together with: salmon DNA 0.4 mg/ml; baseline: random background probes; reading: higher = stronger binding; all sequences stand within: GCCTAGCAC … GTCTTGATTCGCTTGACGCTGCTG
Target: Interferon regulatory factor 3, full length, phosphomimetic (IRF3, Homo sapiens, UniProt Q14653, residues 1-427, S386D/S396D/S398D/S402D/T404D/S405D)
UniProt Q14653, sequence (whole entry, unmodified, looked up): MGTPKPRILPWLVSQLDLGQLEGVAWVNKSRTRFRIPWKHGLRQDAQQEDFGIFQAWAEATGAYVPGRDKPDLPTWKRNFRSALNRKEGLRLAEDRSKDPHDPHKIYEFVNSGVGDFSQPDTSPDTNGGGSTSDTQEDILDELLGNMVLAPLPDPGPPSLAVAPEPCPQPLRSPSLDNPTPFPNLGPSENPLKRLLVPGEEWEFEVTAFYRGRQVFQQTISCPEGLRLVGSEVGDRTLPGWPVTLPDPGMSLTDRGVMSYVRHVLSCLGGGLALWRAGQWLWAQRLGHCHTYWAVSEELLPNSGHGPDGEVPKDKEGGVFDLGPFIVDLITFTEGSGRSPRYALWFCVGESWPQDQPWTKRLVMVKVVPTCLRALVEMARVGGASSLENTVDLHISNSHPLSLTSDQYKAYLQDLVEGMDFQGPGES
| Strand | fitted relative affinity |
| --- | --- |
| TCAGCTTCCTCTTTACTACTGTGCTAG | 1.38 z-score |
| GGGTCTCTGGGTCGGGCAGGGTGCTAG | -0.795 z-score |
| TGAGGACTGGACTATCGGTTAGTGCTA | -0.727 z-score |
| GACAGACTGGGGTATCGGGACGTGCTA | -0.429 z-score |
| GTCCCTGAATGAAAACATCATGTGCTA | 0.374 z-score |
| GACGGTTTCCTTCTCATGACGTGCTAG | 9.75 z-score |
| TTAGGTATCCAACTGCTTTAGTGCTAG | 1.47 z-score |
| GACGGTATCGGTATCGGTACGTGCTAG | 5.24 z-score |
| TTAGGACTGGACTATCGGTTAGTGCTA | -0.293 z-score |
| CCACTCTTCCTTTACTTTCTGTGCTAG | 2.28 z-score |
| GACGATTTCGGGACTGTAGACGTGCTA | 1.87 z-score |
| GAGGGACTGGGACTGGGGACGTGCTAG | -1.15 z-score |
| GACGAATTGAGTTTCGAGACGTGCTAG | 1.54 z-score |
| TTAGGACTGGGGACTGGGTAAGTGCTA | -0.858 z-score |
| TTAAATTTCGGGTATCGATTAGTGCTA | 1.64 z-score |
| TTAGGTTTCCTTCACCTTTAGTGCTAG | 3.83 z-score |
| TCAGCTTTCCTGATGACACTGTGCTAG | 1.45 z-score |
| GACGGTTTCGCCACTGGGGACGTGCTA | 2.86 z-score |
| GACGGACTGGGGTTTCGAGACGTGCTA | 0.0795 z-score |
| GACGATATCAGATTCGAGACGTGCTAG | 1.71 z-score |
| TTGGGTATCGGACTGGGTTAGTGCTAG | 0.185 z-score |
| CTCGCTATGTTGTCCAGGCTGGTGCTA | -0.497 z-score |
| ACGTTTTTCATTTTTTTTTTGTGCTAG | 2.25 z-score |
| TTAGGACTGCTTTTCCTTAAGTGCTAG | 0.485 z-score |
| GACGGTTTCGGTTTCGTGACGTGCTAG | 10.8 z-score |

Block 6 — target: CCNA2, cyclin fold, Cln2 fusion (human); technique: yeast growth competition, sequencing; matrix: yeast; notes: strong parent motif; baseline: not given; reading: higher = stronger binding
Starting sequence: MICAL3 docking peptide (human); LQLRRQLSFSEDS
| Substitution | normalised enrichment score |
| --- | --- |
| LQLRRQLSQSEDS [F9Q] | 0.112 |
| LNLRRQLSFSEDS [Q2N] | 3.68 |
| LQLRRQLSFSCDS [E11C] | 3.59 |
| LQLRRQLSFFEDS [S10F] | 2.14 |
| LQLRRQSSFSEDS [L7S] | -0.172 |
| LQLRRQKSFSEDS [L7K] | -0.00816 |
| LQARRQLSFSEDS [L3A] | 5.77 |
| LQLRRQCSFSEDS [L7C] | -0.086 |
| LQLRRQLGFSEDS [S8G] | 1.02 |
| LQLRDQLSFSEDS [R5D] | 0.0253 |
| LQLRLQLSFSEDS [R5L] | 0.234 |
| LQLRQQLSFSEDS [R5Q] | 0.127 |
| LPLRRQLSFSEDS [Q2P] | 4.76 |
| LQLRRQLSPSEDS [F9P] | 0.257 |
| LQLRRQLSFSTDS [E11T] | 3.22 |
| LQLRRLLSFSEDS [Q6L] | 1.05 |
| LQLREQLSFSEDS [R5E] | -0.0466 |
| LQLRRPLSFSEDS [Q6P] | 0.456 |
| LQLRRQLSFSEMS [D12M] | 3.67 |
| LQLERQLSFSEDS [R4E] | -0.28 |
| LQLRRQLSFSEFS [D12F] | 3.02 |
| LQLRRGLSFSEDS [Q6G] | 0.975 |
| LQLRRQLEFSEDS [S8E] | 2.69 |
| LQLRRQMSFSEDS [L7M] | 0.386 |
| LQLVRQLSFSEDS [R4V] | 1.25 |

Excerpt of the above (block 6):
| Substitution | normalised enrichment score |
| --- | --- |
| LQLRRQLSFSEMS [D12M] | 3.67 |
| LQLERQLSFSEDS [R4E] | -0.28 |
| LQLRRQLEFSEDS [S8E] | 2.69 |
| LQLRRQLSFSTDS [E11T] | 3.22 |
| LQLRQQLSFSEDS [R5Q] | 0.127 |
| LQLRRQMSFSEDS [L7M] | 0.386 |
| LQLRRQLSPSEDS [F9P] | 0.257 |
| LQLRRPLSFSEDS [Q6P] | 0.456 |
| LNLRRQLSFSEDS [Q2N] | 3.68 |
| LQLRRGLSFSEDS [Q6G] | 0.975 |
| LQLVRQLSFSEDS [R4V] | 1.25 |
| LPLRRQLSFSEDS [Q2P] | 4.76 |
| LQLRRLLSFSEDS [Q6L] | 1.05 |
| LQLRRQCSFSEDS [L7C] | -0.086 |
| LQLRLQLSFSEDS [R5L] | 0.234 |
| LQLRDQLSFSEDS [R5D] | 0.0253 |
| LQLREQLSFSEDS [R5E] | -0.0466 |
| LQLRRQLSQSEDS [F9Q] | 0.112 |
| LQLRRQSSFSEDS [L7S] | -0.172 |
| LQLRRQLGFSEDS [S8G] | 1.02 |
